Experimental data collected from several papers.
Each line is one published result; not all experiments were run side by side. “And” joins repeats or separate records; there may be more than shown. ± gives the spread as reported. Converted amounts (≈) assume the structure as drawn.

| Structure (SMILES) | target or system | test | test system | conditions | scale | endpoint | value |
| --- | --- | --- | --- | --- | --- | --- | --- |
| COc1c(C)c2c(c(O)c1C/C=C(\C)CCC(=O)O)C(=O)OC2 | NCI-H358M | cell proliferation | – | – | – | IC50 | 1.91 µM |
| Cc1cc(C(C)(C)c2ccc(O)c(C)c2)ccc1O | HepG2 spheroids | MTS | – | 80 µM, 96 h | reference: solvent control | viability | ~35% |
| Nc1ccc(-c2ccc3ncc4ccc(=O)n(-c5cccc(C(F)(F)F)c5)c4c3c2)cn1 | human coronavirus OC43 | virus-induced cell killing | MRC-5 | maximum over 10 doses | – | maximum inhibition | 0.974% |
| COc1ccc2c(c1)[nH]c1c(C)nccc12 | DU-145 | bisulfite pyrosequencing, measured: RASSF1A promoter CpG site 18 | – | concentration not given | reference: vehicle | methylation reduction | 1.5% |
| O=C1N(Cc2ccccc2Cl)c2ccccc2C12NN=C(c1ccccc1)S2 (stereo not shown) | MDA-MB-468 | gene expression array, measured: HNRNPA2B1 mRNA | – | 10 µM, 12 h | reference: untreated, down | fold change | 1.61 |
| CC(=O)O[C@H]1CC[C@]2(C=O)[C@H]3CC[C@]4(C)[C@@H](C5=CC(=O)OC5)CC[C@]4(O)[C@@H]3CC[C@]2(O)C1 | human iPSC cardiomyocytes | plate-normalised | – | concentration not given, hit retest | reference: vehicle controls, SDs below control | MyBP-C level change | 15.7 SD |
| Cc1ccc(-n2nc(C(C)(C)C)cc2NC(=O)Nc2ccc(OCCN3CCOCC3)c3ccccc23)cc1 | human coronavirus OC43 | virus-induced cell killing | MRC-5 | screen | – | maximum inhibition | 77.9% |
| Cn1cc2cc(C(F)(F)c3nnc4ccc(-c5cnn(C6CC6)c5)nn34)c(F)cc2n1 | MKN-45 | PI flow cytometry | – | 20 nM, 24 h | – | cells in S phase | 23.4% and 26.5% and 27.1% |
| CC(C)(O/N=C(\C(=O)N[C@@H]1C(=O)N2C(C(=O)[O-])=C(C[n+]3ccccc3)CS[C@H]12)c1csc(N)n1)C(=O)O | Escherichia coli DH5α expressing KPC-180 | bacterial growth | – | – | – | MIC | 64 µg/mL (≈ 117 µM) |
| CO[C@H]1C[C@@H](C[C@H](C)[C@H]2CC(=O)[C@@H](C)/C=C(\C)[C@H](O)[C@H](OC)C(=O)[C@@H](C)C[C@@H](C)/C=C/C=C/C=C(\C)[C@H](OC)C[C@H]3CC[C@H](C)[C@](O)(O3)C(=O)C(=O)N3CCCC[C@@H]3C(=O)O2)CC[C@@H]1OCCO (racemic) | Huh-7 | MTT | – | – | reference: CC50 over IC50 | selectivity index | 12.7 |
| COc1cc(CCC[P+](c2ccccc2)(c2ccccc2)c2ccccc2)c(OC)c2c1OCO2.[I-] | NCI/ADR-RES | SRB | – | – | – | Log10LC50 | > -4 log M |
| COP(=O)(OC)OC=C(Cl)Cl | MDA-MB-231 BAX/BAK siRNA knockdown | cell viability, CellTiter-Glo | – | – | direction not given | Z score | 1.66 |
| C/C=C(/C)C(=O)O[C@H]1C(C)=C2[C@H]([C@@H]1OC(=O)CCCCCCC)[C@@](C)(OC(C)=O)C[C@H](OC(=O)CCC)[C@@]1(O)[C@H]2OC(=O)[C@@]1(C)O | HEK-293T | RNA-seq GSEA, measured: Hallmark IL2 STAT5 signaling | – | 500 nM, 6 h | direction not given | normalized enrichment score | 1.48 |
| CN1CCc2[nH]c(-c3ccnc(NC(=O)[C@@H](CC(F)F)c4ccc(F)cc4)c3)c(Nc3ccccc3)c2C1=O | MOLM-13 | mRNA level, RNA-seq, measured: PSAT1 | – | 200 nM, 24 h | reference: DMSO | log2 fold change | -3.27 |
| OC(c1ccc(-c2ccc(CN3CCN(Cc4ccncc4)CC3)cc2)c(F)c1)(C(F)(F)F)C(F)(F)F | EL4 | ATAC-seq, measured: RORγt-regulated Th17 genes | – | 5 µM, together with: PMA + ionomycin | – | chromatin accessibility | decreased |
| COc1c(CCC[P+](c2ccccc2)(c2ccccc2)c2ccccc2)cc2c(c1OC)OCO2.[I-] | KM12 | SRB | – | – | – | LC50 | -4.37 log M |
| CC(C)(C)C(=O)C(Oc1ccc(Cl)cc1)n1cncn1 (stereo not shown) | THP-1 | pyroptotic LDH release | – | 2 µM, 40 min, together with: LPS then nigericin | – | inhibition | -2.41% |

| Structure (SMILES) | target or system | test | test system | conditions | scale | endpoint | value |
| --- | --- | --- | --- | --- | --- | --- | --- |
| Cc1nn(-c2nc3c(F)cc(F)cc3s2)c(O)c1C(c1ccc(C(F)(F)F)cc1)c1c(C)nn(-c2nc3c(F)cc(F)cc3s2)c1O | RAW-ISG | CCK-8 | – | 3.125 µM | – | viability | 104% and 106% and 107% |
| CN1CCN(C2(CNC3CCN(c4cccc(-c5cc6cc(F)ccc6[nH]5)c4)CC3)CCC2)CC1 | KM12 | – | – | – | – | CC50 | 6.05 µM |
| CCN(CC)c1ccc(C=NNC(=O)CSc2nc3ccccc3c(=O)n2Cc2ccc(S(N)(=O)=O)cc2)c(O)c1 | KM12 | NCI five-dose screen | – | – | – | CC50 | > 100 µM |
| O=c1c(O)c(-c2ccc(O)c(O)c2)oc2cc(O)cc(O)c12 | SH-SY5Y Aβ-GFP cells | Aβ aggregation inhibition, GFP folding reporter | – | – | – | EC50 | 12.2 µM |
| O=C(Nc1ccc2[nH]nc(-c3ccncc3)c2c1)[C@@H]1CCN(CC(=O)N2CCN(c3ccc(-c4ncccn4)cc3)CC2)C1 | HCT116 | IncuCyte | – | concentration not given, 48 (unit not given) | – | PI-positive cells | 30.8 count and 38.3 count and 40.9 count |
| CC(C)N1CCC(NC2CCN(c3cccc(-c4cc5cc(F)ccc5[nH]4)c3)CC2)CC1 | OVCAR-5 | – | – | – | – | GI50 | 1.83 µM |
| Oc1ccc(C(c2ccc(O)cc2)(C(F)(F)F)C(F)(F)F)cc1 | HepG2 spheroids | Hoechst flow cytometry | – | 1 µM, 24 h | – | S phase cells | 7.34 ± 1.52% |
| CC[C@H](C)[C@H](NC(=O)[C@H](C)NC(=O)CNC(=O)[C@H](Cc1ccccc1)NC(=O)[C@H](CC(N)=O)NC(=O)[C@H](CC(N)=O)NC(=O)[C@H](CO)NC(=O)[C@H](CO)NC(=O)[C@H](Cc1c[nH]cn1)NC(=O)[C@@H](NC(=O)[C@H](CC(C)C)NC(=O)[C@H](Cc1ccccc1)NC(=O)[C@H](CC(N)=O)NC(=O)[C@H](C)NC(=O)[C@H](CC(C)C)NC(=O)[C@H](CCCNC(=N)N)NC(=O)[C@H](CCC(N)=O)NC(=O)[C@@H](NC(=O)[C@H](C)NC(=O)[C@@H]1CSSC[C@H](NC(=O)[C@@H](N)CCCCN)C(=O)N[C@@H](CC(N)=O)C(=O)N[C@@H]([C@@H](C)O)C(=O)N[C@@H](C)C(=O)N[C@@H]([C@@H](C)O)C(=O)N1)[C@@H](C)O)C(C)C)C(=O)N[C@@H](CC(C)C)C(=O)N[C@@H](CO)C(=O)N[C@@H](CO)C(=O)N[C@H](C(=O)N[C@@H](CC(N)=O)C(=O)N[C@H](C(=O)NCC(=O)N[C@@H](CO)C(=O)N[C@@H](CC(N)=O)C(=O)N[C@H](C(=O)N[C@@H](Cc1ccc(O)cc1)C(N)=O)[C@@H](C)O)C(C)C)[C@@H](C)O | INS-1 | MTT | – | 1 µM, 24 h | – | viability | 53% |
| CC[C@H]1CN2CC[C@H]1C[C@@H]2[C@@H](O)c1ccnc2ccc(OC)cc12 | THP-1 | pyroptotic LDH release | – | 2 µM, 40 min, together with: LPS then nigericin | – | inhibition | -0.255% |
| COc1cccc2c1C(=O)c1c(O)c3c(c(O)c1C2=O)C[C@@](O)(C(=O)CO)C[C@@H]3O[C@H]1C[C@H](N)[C@H](O)[C@H](C)O1 | HCT-116 p53-/- | MTT | – | concentration not given | reference: p53-/- over parental cells | fold difference in cytotoxicity | 2 fold |
| Cc1sc2c(c1C)C(c1ccc(Cl)cc1)=N[C@@H](CC(=O)OC(C)(C)C)c1nnc(C)n1-2 | iCas9-MOLM-13 sgGFP | RNA-seq, measured: TERT | – | 50 nM, 24 h | reference: DMSO | log2 fold change | -1.06 |
| Nc1ncnc2c1ncn2[C@@H]1O[C@@H]2COP(=O)(O)O[C@H]3[C@@H](O)[C@H](n4cnc5c(=O)[nH]cnc54)O[C@@H]3COP(=O)(O)O[C@H]2[C@H]1O | HFF-1 | RNA sequencing, measured: Reactome Interleukin-10 signaling | – | upregulated pathways | reference: mock | fold enrichment | 12.6 |
| CC(C)(C)c1cc(C=C(C#N)C#N)cc(Br)c1O | hCMEC/D3 | outcome: decreased, Western blot, measured: Erk | – | 100 µM, no insulin | – | phosphorylation | decreased |
| N.N.[Cl][Pt][Cl] | RPE-1 hTERT TP53-/- cells | – | – | uninfected, base editing screen | – | LD20 | 1 µM |
| Cn1cncc1C1=CN(c2ncnc3[nH]cnc23)CCS1 | NCI/ADR-RES | – | – | ovarian cancer cell line | – | CC50 | > 200 µM |
| O=S(=O)(c1ccc(O)cc1)c1ccc(O)cc1 | HepG2 spheroids | planimetry | – | 10 µM, 0 to 24 h | reference: mean area of 72 h spheroids | spheroid area increase | 153% |
| CCCCCC[C@H]1C(=O)O[C@H](C)[C@H](NC(=O)c2cccc(NC=O)c2O)C(=O)O[C@@H](C)[C@@H]1OC(=O)CC(C)C | HEK293T ATF4-FLuc reporter | ATF4 reporter gene, activator, luciferase reporter | – | – | – | EC50 | 0.0867 µM |

Some of these lines once more:
| Structure (SMILES) | target or system | test | test system | conditions | scale | endpoint | value |
| --- | --- | --- | --- | --- | --- | --- | --- |
| O=c1c(O)c(-c2ccc(O)c(O)c2)oc2cc(O)cc(O)c12 | SH-SY5Y Aβ-GFP cells | Aβ aggregation inhibition, GFP folding reporter | – | – | – | EC50 | 12.2 µM |
| O=S(=O)(c1ccc(O)cc1)c1ccc(O)cc1 | HepG2 spheroids | planimetry | – | 10 µM, 0 to 24 h | reference: mean area of 72 h spheroids | spheroid area increase | 153% |
